Experimental data from different studies.
A part holds a random share of what one study measured.

Study 1 — technique: protein binding microarray; form: double-stranded DNA, one strand shown; sample: in vitro; concentration: not given; relative to: not given; direction: higher = stronger binding
Target: Histone acetyltransferase KAT6A, winged helix 1, GST fusion (KAT6A, Homo sapiens, UniProt Q92794, residues 1-85)
Setting: 8-mer, flanks averaged, mean of 2 arrays, mostly near background
Target sequence (chain): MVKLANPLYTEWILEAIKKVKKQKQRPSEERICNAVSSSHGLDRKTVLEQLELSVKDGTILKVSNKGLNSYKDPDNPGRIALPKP
With `GAATTCCA` the E-score was -0.127.
With `GCGTGTGA` the E-score was 0.148.
The E-score of `GTGTGACA` is reported as -0.0907.
`ACTCACTA` gave an E-score of -0.157.
For `CCTTCGCG`, the E-score was 0.225.
With `AATACCGC` the E-score was 0.341.

Study 2 — technique: competition protein-binding microarray; form: double-stranded DNA, one strand shown; sample: in vitro; concentration: 2 µM; together with: Pho4 competitor, 0.05 µM; direction: higher = stronger binding; constant ends, left off below: … GTCTTGATTCGCTTGACGCTGCTG
Target: Centromere-binding protein 1, full length, His-tagged (CBF1, Saccharomyces cerevisiae, UniProt P17106, residues 1-351)
UniProt P17106, sequence (whole entry, looked up): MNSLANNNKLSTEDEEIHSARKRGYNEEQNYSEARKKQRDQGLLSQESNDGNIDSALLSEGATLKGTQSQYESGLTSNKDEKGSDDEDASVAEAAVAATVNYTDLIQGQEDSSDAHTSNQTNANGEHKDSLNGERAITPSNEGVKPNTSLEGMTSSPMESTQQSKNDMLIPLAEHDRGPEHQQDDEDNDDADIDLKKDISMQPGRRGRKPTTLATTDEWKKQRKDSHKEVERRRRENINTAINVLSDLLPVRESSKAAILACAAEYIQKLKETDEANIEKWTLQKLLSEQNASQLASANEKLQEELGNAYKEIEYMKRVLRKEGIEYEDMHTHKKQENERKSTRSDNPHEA
Setting: whole 60-bp probe, lowest competitor level
`CAGATGGACACTTGTTACGTGTGGATCAGACTATTG` gave a fluorescence intensity of 78.9 a.u.
With `CGGGGTTAAGTTTGGTCTGTGGGTGGCTTGCAGCAG` the fluorescence intensity was 63.1 a.u.
`GCGTCTGCTCCCCATCACGATACCCGAGGTGCAGGC` gave a fluorescence intensity of 88.7 a.u.
With `CAATGTTTTTAAAAGCACGTGACTCGAATGTTACCC` the fluorescence intensity was 20400 a.u.
`GCTTATATCAACCGTCACGGGACTCTATCCAAGACT` has a fluorescence intensity of 873 a.u.

Study 3 — technique: protein-binding microarray; form: double-stranded DNA, one strand shown; sample: in vitro; concentration: not given; direction: higher = stronger binding
Target: Transcriptional repressor CTCF (CTCF, Homo sapiens, UniProt P49711, residues 1-727, full length assumed)
UniProt P49711, sequence (whole entry, looked up): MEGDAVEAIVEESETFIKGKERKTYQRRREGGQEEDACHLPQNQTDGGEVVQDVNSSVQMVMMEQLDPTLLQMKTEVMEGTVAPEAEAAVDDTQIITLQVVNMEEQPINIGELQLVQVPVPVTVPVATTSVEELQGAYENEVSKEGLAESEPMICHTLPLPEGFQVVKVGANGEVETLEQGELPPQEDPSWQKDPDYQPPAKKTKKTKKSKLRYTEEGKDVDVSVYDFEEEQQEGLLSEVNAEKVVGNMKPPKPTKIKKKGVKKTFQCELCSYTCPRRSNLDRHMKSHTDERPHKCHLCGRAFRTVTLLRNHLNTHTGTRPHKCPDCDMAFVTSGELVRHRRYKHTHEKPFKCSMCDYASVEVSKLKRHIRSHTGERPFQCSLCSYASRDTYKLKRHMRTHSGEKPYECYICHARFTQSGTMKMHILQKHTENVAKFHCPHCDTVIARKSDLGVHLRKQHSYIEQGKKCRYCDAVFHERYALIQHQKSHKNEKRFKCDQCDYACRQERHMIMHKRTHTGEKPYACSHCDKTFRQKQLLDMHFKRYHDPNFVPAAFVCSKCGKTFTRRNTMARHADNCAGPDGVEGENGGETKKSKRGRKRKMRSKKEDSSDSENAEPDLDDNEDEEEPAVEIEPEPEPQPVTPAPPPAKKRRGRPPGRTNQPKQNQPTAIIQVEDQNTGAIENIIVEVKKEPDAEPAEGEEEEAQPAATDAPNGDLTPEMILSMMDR
Setting: k-mer, scored over probes, only values ≥0.25
For `ATTAACTC`, the E-score was 0.256.
`CGTATTTC` has an E-score of 0.293.
With `AGTATAAG` the E-score was 0.299.
The E-score of `CAGCGCCA` is reported as 0.292.
`TGGCGCAA` gave an E-score of 0.434.

Single results of other studies
For `PhoQ, residues 284 288 289 292 302 303 SMYGEC`, the fold induction was 2.57 (PhoP, residues 12 14 15 18 19 YHFSH (Escherichia coli, UniProt P23836); Sort-seq, refers to: YFP reporter; E. coli; PhoQ-PhoP variant library, together with: 10 µM Mg2+; relative to: high Mg2+ state, higher = stronger signaling).

A few entries again (study 1):
With `AATACCGC` the E-score was 0.341.
